{"data": "Assay results collected from several papers", "note": "Each line is one published result; not all experiments were run side by side. ± marks the error that the study gave."}
{"Compound": "CN(C)CCCNC(=O)/C(=C/CCCCC(=O)NO)COc1cccc2ccccc12", "system": "human", "setting": "iv, 250 mg/m2, day 1, single dose, mean", "clearance": "6.91 L/h"}
{"Compound": "CN(C)N=Nc1[nH]cnc1C(N)=O", "system": "human patients, plasma", "setting": "intravenous, 1000 mg/m^2 over 1 h, cycle 2 day 1, co-administered with another drug", "clearance": "6.74 L/h/m²"}
{"Compound": "Cc1c2oc3c(C)ccc(C(=O)N[C@@H]4C(=O)N[C@H](C(C)C)C(=O)N5CCC[C@H]5C(=O)N(C)CC(=O)N(C)[C@@H](C(C)C)C(=O)O[C@@H]4C)c3nc-2c(C(=O)N[C@@H]2C(=O)N[C@H](C(C)C)C(=O)N3CCC[C@H]3C(=O)N(C)CC(=O)N(C)[C@@H](C(C)C)C(=O)O[C@@H]2C)c(N)c1=O", "assay": "population PK, three-compartment", "system": "human", "clearance": "11.9 L/h/70 kg"}
{"Compound": "CC1(C)CCC(CN2CCN(c3ccc(C(=O)NS(=O)(=O)c4ccc(NCC5CCOCC5)c([N+](=O)[O-])c4)c(Oc4cnc5[nH]ccc5c4)c3)CC2)=C(c2ccc(Cl)cc2)C1", "system": "human CLL patients, plasma", "setting": "oral, median", "clearance": "4 L/h"}
{"Compound": "CC(=O)O[C@H]1C(=O)[C@@]2(C)[C@H]([C@H](OC(=O)c3ccccc3)[C@]3(O)C[C@H](OC(=O)[C@H](O)[C@@H](NC(=O)c4ccccc4)c4ccccc4)C(C)=C1C3(C)C)[C@]1(OC(C)=O)CO[C@@H]1C[C@@H]2O", "system": "human, plasma", "setting": "intravenous infusion, 80 mg/m^2, day 5, with oral co-drug daily", "clearance": "16.6 L/h"}
{"Compound": "CC(C)c1ncc(C(=O)N2CCOC3(CCN(Cc4ccc(F)c(CCNC[C@H](O)c5ccc(O)c6[nH]c(=O)sc56)c4)CC3)C2)s1", "system": "human", "clearance": "21.7 mL/min/kg"}
{"Compound": "NC(=O)N1c2ccccc2CC(O)c2ccccc21 (stereo not shown)", "assay": "population PK modelling", "system": "human patients, plasma", "setting": "weight-scaled, proportional error", "clearance": "2.83 L/h"}
{"Compound": "OCc1cc(C(O)CNCCCCCCOCCCCc2ccccc2)ccc1O (stereo not shown)", "system": "human", "clearance": "9.17 mL/min/kg"}
{"Compound": "NS(=O)(=O)OC[C@@H]1C[C@@H](n2ccc3c(N[C@H]4CCc5ccccc54)ncnc32)C[C@@H]1O", "system": "human patients sample A years or younger, plasma", "setting": "median, BSA-adjusted", "clearance": "18 L/h/m²"}
{"Compound": "COc1cc(NC(=O)CCN2CCC(OC(=O)Nc3ccccc3-c3ccccc3)CC2)c(Cl)cc1CNC[C@H](O)c1ccc(O)c2[nH]c(=O)ccc12", "system": "human", "clearance": "55 mL/min/kg"}
{"Compound": "CN[C@@H](C)C(=O)N[C@H]1CN(S(=O)(=O)c2cccc(S(=O)(=O)N3CC[C@H]4CC[C@@H](C(=O)NC(c5ccccc5)c5ccccc5)N4C(=O)[C@@H](NC(=O)[C@H](C)NC)C3)c2)CC[C@H]2CC[C@@H](C(=O)NC(c3ccccc3)c3ccccc3)N2C1=O", "assay": "LC-MS/MS, noncompartmental", "system": "human, plasma", "setting": "45 mg, cycle 1 day 1", "clearance": "51.1 ± 23.2 L/h"}
{"Compound": "Cn1cnc2c(F)c(Nc3ccc(Br)cc3Cl)c(C(=O)NOCCO)cc21", "assay": "nonlinear absorption model", "system": "human, plasma", "setting": "oral", "clearance": "12.6 L/h"}
{"Compound": "Nc1ccn([C@@H]2O[C@H](CO)[C@@H](O)C2(F)F)c(=O)n1", "assay": "HPLC-UV", "system": "human, plasma", "setting": "800 mg/m^2, median, after paricalcitol", "clearance": "48.1 L/h/m²"}
{"Compound": "Cc1cn(-c2cc(NC(=O)c3ccc(C)c(Nc4nccc(-c5cccnc5)n4)c3)cc(C(F)(F)F)c2)cn1", "assay": "population PK model", "system": "human, plasma", "setting": "oral, fasted, typical value", "clearance": "34.3 L/h"}
{"Compound": "O=C(/C=C/c1cccc(S(=O)(=O)Nc2ccccc2)c1)NO", "system": "human patients, plasma", "setting": "1800 mg/m^2", "clearance": "33.4 L/h/m²"}
{"Compound": "Cc1ccc([C@@H]2O[C@H](CO)[C@@H](O)[C@H](O)[C@H]2O)cc1Cc1ccc(-c2ccc(F)cc2)s1", "system": "human, maintenance hemodialysis patients", "setting": "oral, 300 mg once daily, steady state, mean", "clearance": "13.1 L/h"}
